Results from different studies.
Protocols differ between the studies behind these lines. “And” joins repeats or separate records; there may be more than shown. Numbers after ± are the reported error.
PIK3CB with p85 alpha: Phosphatidylinositol 4,5-bisphosphate 3-kinase catalytic subunit beta isoform, with p85 alpha (PIK3CB, Homo sapiens, UniProt P42338)
UniProt P42338, sequence (whole entry, looked up): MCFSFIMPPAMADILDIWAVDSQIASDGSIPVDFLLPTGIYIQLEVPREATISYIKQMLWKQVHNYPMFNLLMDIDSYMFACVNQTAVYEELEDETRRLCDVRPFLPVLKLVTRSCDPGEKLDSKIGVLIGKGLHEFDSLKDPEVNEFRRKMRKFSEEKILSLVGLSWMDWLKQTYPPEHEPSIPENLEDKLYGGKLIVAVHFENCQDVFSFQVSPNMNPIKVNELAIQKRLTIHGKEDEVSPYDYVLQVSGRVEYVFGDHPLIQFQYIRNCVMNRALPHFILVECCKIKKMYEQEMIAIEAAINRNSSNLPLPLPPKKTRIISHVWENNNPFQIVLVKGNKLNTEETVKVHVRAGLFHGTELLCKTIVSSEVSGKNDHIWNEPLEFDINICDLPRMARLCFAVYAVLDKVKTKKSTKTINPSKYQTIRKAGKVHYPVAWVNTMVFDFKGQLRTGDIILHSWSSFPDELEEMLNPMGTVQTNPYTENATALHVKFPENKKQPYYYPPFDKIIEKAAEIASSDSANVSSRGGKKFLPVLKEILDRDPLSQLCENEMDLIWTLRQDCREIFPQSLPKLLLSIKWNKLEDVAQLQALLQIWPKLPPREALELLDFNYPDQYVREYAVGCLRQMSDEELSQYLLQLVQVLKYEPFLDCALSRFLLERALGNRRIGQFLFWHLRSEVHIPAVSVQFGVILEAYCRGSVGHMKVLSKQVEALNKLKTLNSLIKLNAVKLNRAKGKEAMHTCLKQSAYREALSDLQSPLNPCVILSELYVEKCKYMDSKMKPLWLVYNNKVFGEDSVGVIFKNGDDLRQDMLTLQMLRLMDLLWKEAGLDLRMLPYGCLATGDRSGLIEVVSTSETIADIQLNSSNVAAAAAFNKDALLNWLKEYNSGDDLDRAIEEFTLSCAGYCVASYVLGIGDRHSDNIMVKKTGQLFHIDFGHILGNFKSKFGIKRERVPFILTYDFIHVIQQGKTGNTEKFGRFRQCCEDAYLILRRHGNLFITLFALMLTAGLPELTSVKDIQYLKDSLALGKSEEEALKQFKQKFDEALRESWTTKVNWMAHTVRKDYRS
PIK3CB: Phosphatidylinositol 4,5-bisphosphate 3-kinase catalytic subunit beta isoform (PIK3CB, Homo sapiens, UniProt P42338)

Compound	target	assay	setting	quantity	value
C/C(=N\NC(N)=S)c1c(O)c2ccccc2oc1=O	PIK3CB with p85 alpha	kinase activity, ADP-Glo	–	IC50	174 ± 10 nM
Cc1nc(NC(=O)N2CCCC2)sc1-c1csc(C(C)(C)C)n1	PIK3CB	enzyme activity, inhibitor, TR-FRET	–	IC50	> 25000 nM
O=C(/C=C/c1ccccc1)Oc1ccc2c(c1)O/C(=C\C=C\c1ccccc1)C2=O	PIK3CB with p85 alpha	enzyme activity, inhibitor, ELISA	–	IC50	> 1000 nM
COc1c(OCCCN)ccc2c1N=C(NC(=O)c1cccnc1)N1CCN=C21	PIK3CB	enzyme activity, inhibitor, radiometric	–	IC50	22.3 nM
COC(=O)CCSc1nc2n(n1)C(c1cccc(OC)c1)C(C(=O)Nc1cncc(C)c1)=C(C)N2 (stereo not shown)	PIK3CB with p85 alpha	enzyme activity, inhibitor, ADP-Glo	–	IC50	3100 nM
Nc1ccc(C(=O)NC2=Nc3ccccc3C3=NCCN23)cn1	PIK3CB	enzyme activity, inhibitor, radiometric	–	IC50	49.3 nM
CC(=O)c1cnc(N)nc1N1CC[C@H]1c1nn2ccc(Cl)c2c(=O)n1-c1ccccc1	PIK3CB with p85 alpha	surface plasmon resonance	25 °C	Kd	640 nM
O=C(NC1=Nc2ccccc2C2=NCCCN12)c1cccnc1	PIK3CB	enzyme activity, inhibitor, radiometric	–	IC50	> 10000 nM
N#Cc1c(N)nc(N)nc1OCC1CCCCC1	PIK3CB	enzyme activity, inhibitor	–	IC50	18000 nM and 23000 nM
Cc1ccc(CN2C(=O)/C(=N\c3ccc(Cl)cc3Br)c3ccccc32)cc1	PIK3CB	enzyme activity, inhibitor, ADP detection	–	IC50	9.63 nM
